Measured values pooled from the literature.
Each line is one published result; not all experiments were run side by side. ± marks the error that the study gave.
Chain of UniProt P08684 (whole entry, looked up): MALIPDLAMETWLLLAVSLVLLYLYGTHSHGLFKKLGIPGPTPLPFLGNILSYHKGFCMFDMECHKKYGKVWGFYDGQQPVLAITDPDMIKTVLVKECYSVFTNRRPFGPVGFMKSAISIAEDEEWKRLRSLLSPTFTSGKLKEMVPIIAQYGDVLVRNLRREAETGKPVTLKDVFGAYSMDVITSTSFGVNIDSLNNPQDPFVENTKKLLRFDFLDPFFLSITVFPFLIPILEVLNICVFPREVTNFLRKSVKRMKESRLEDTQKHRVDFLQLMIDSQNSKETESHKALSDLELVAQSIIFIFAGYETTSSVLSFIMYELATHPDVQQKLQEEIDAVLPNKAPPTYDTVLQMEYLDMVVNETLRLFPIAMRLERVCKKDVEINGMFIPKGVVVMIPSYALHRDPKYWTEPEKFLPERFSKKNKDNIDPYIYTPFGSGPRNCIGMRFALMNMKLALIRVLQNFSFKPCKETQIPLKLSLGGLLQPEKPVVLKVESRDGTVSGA

| Compound | target or system | test | test system | conditions | scale | quantity | result |
| --- | --- | --- | --- | --- | --- | --- | --- |
| N#CC(=C1C=CC(=NOC(=O)OCc2ccccc2)C=C1)c1ccccc1 | Candida parapsilosis | broth dilution | ATCC 22099 | 48 h, 37 °C | – | MIC | 16 µg/mL |
| O/N=c1\cc2n(-c3ccc(Cl)cc3)c3ccccc3nc-2cc1Nc1ccc(Cl)cc1 | Mycobacteroides abscessus | bacterial growth | clinical isolate | – | – | MIC | > 30 µM |
| COc1cccc(CNc2ccc(C(=O)O)cc2)c1OC | Enterococcus | – | – | – | – | MIC | 256 µg/mL |
| Cc1c(CN(C)C(=O)/C=C/c2cnc3c(c2)CCC(=O)N3)oc2ccccc12 | Escherichia coli | broth microdilution | AR-0346 | – | – | MIC | > 32 µg/mL |
| CCCCCCCCCC(=O)N[C@@H](Cc1c[nH]c2ccccc12)C(=O)N[C@H](CC(N)=O)C(=O)N[C@@H](CC(=O)O)C(=O)N[C@@H]1C(=O)NCC(=O)N[C@@H](CCCN)C(=O)N[C@@H](CC(=O)O)C(=O)N[C@H](C)C(=O)N[C@@H](CC(=O)O)C(=O)NCC(=O)N[C@H](CO)C(=O)N[C@@H]([C@H](C)CC(=O)O)C(=O)N[C@@H](CC(=O)c2ccccc2N)C(=O)O[C@@H]1C | Staphylococcus aureus | – | SH1000 | with: phosphatidylglycerol, molar ratio 0.5 | – | MIC | 1 µg/mL |
| O=C(O)CO/N=c1\cc2n(-c3ccc(Cl)cc3)c3ccccc3nc-2cc1Nc1ccc(Cl)cc1 | Mycobacteroides abscessus | bacterial growth | clinical isolate | – | – | MIC | > 30 µM |
| CC1(C)SC2C(NC(=O)C(NC(=O)C3=C(O)C(Cc4ccc(F)cc4)NC3=O)c3ccccc3)C(=O)N2C1C(=O)O (stereo not shown) | Escherichia coli | broth microdilution | ATCC 25922 wild type | no clavulanic acid | – | MIC | 6.25 µg/mL |
| CCCCCCCCCC(=O)N[C@@H](Cc1c[nH]c2ccccc12)C(=O)N[C@H](CC(N)=O)C(=O)N[C@@H](CC(=O)O)C(=O)N[C@@H]1C(=O)NCC(=O)N[C@@H](CCCN)C(=O)N[C@@H](CC(=O)O)C(=O)N[C@H](C)C(=O)N[C@@H](CC(=O)O)C(=O)NCC(=O)N[C@H](CO)C(=O)N[C@@H]([C@H](C)CC(=O)O)C(=O)N[C@@H](CC(=O)c2ccccc2N)C(=O)O[C@@H]1C | Enterococcus | broth microdilution | VRE 155, Mueller-Hinton broth, Mg2+ 10 mg/L | 16 h, with: Ca2+ 5 mM | – | MIC | 0.25 µg/mL |
| CC1(C)SC2C(NC(=O)C(NC(=O)C3=C(O)C(Cc4ccc([N+](=O)[O-])cc4)NC3=O)c3ccccc3)C(=O)N2C1C(=O)O (stereo not shown) | Escherichia coli | broth microdilution | ATCC 25922 wild type | with: clavulanic acid 6 µg/mL | – | MIC | 25 µg/mL |
| CC1(C)S[C@@H]2[C@H](NC(=O)[C@H](N)c3ccccc3)C(=O)N2[C@H]1C(=O)O | Pseudomonas aeruginosa | – | clinical isolate RKI-No_497/15 | – | – | MIC | > 16 µg/mL |
| N=C(N)c1ccc(OCCCCCOc2ccc(C(=N)N)cc2)cc1 | Escherichia coli | – | BW25113 | in combination, lowest-FICI combination, with: vancomycin | – | MIC | 200 µg/mL |
| CC[C@H](CO)N(CCN(N=O)[C@H](CC)CO)N=O | Salmonella typhimurium | plate incorporation | TA1535, water | 500 µg/plate, without S9 | – | revertant colonies per plate | 19.3 ± 6 |
| N=C(N)c1cccc(OCc2ccc(COc3cccc(C(=N)N)c3)cc2)c1 | Escherichia coli | – | 552100 | in combination, checkerboard, with: rifampicin | – | MIC | 50 µg/mL |
| O=C(O)CNC(=O)CO/N=c1\cc2n(-c3ccc(Cl)cc3)c3ccccc3nc-2cc1Nc1ccc(Cl)cc1 | Mycobacteroides abscessus | bacterial growth | ATCC 19977 | – | – | MIC | 15 µM |
| COc1cc(C=O)ccc1OC1=C(Cl)C(=O)c2ccccc2C1=O | Bacillus cereus | broth microdilution | MTCC 430 | – | – | MIC | 10 µg/mL |
| COc1cc2c(c(O)c1OC)C(=O)c1c(cc(C)c(O[C@@H]3O[C@H](CO)[C@@H](O)[C@H](O)[C@H]3O)c1OC)C2=O | HK-2 co-cultured with HepaRG | MTT | – | 33.33 µM, 48 h | reference: untreated control | cell viability | 103 ± 4.54% |
| O=C(O)c1ccc(NCc2cc(Br)ccc2O)cc1 | Enterococcus | – | – | – | – | MIC | 64 µg/mL |
| CO/N=c1\cc2n(-c3ccc(Cl)cc3)c3ccccc3nc-2cc1Nc1ccc(Cl)cc1 | Mycobacteroides abscessus | bacterial growth | clinical isolate | – | – | MIC | > 30 µM |
| CC[C@H]1[C@@H](O)[C@@H]2[C@H](CC[C@]3(C)[C@@H]([C@H](C)CCNC(=O)NS(=O)(=O)c4ccc(C(C)(C)C)cc4)CC[C@@H]23)[C@@]2(C)CC[C@@H](O)C[C@@H]12 | Cytochrome P450 3A4 (CYP3A4, Homo sapiens, UniProt P08684) | – | human, plasma | arithmetic mean | – | Tlast | 72 h |
| C[C@H]1CC[C@H](NC(=O)CNc2ccc(Cl)cc2)CC1 | Mycobacteroides abscessus | broth microdilution | – | 120 h | – | MIC | inactive |
| O=c1c(O)c(-c2ccc(O)cc2)oc2cc(O[C@@H]3O[C@H](CO)[C@@H](O)[C@H](O)[C@H]3O)cc(O)c12 | Streptococcus gordonii | – | ATCC 51656 | – | – | MIC | 100 µg/mL |
| N=C(N)c1ccc(OCCC(CCOc2ccc(C(=N)N)cc2)c2ccccc2)cc1 (stereo not shown) | Escherichia coli | – | 552100 | compound alone | – | MIC | > 200 µg/mL |
| CCOC(=O)CNC(=O)CO/N=c1\cc2n(-c3ccc(Cl)cc3)c3ccccc3nc-2cc1Nc1ccc(Cl)cc1 | Mycobacteroides abscessus | bacterial growth | ATCC 19977 | – | – | MIC | > 30 µM |
| CNC(C)C1CCC(N)C(OC2C(N)CC(N)C(OC3OCC(C)(O)C(NC)C3O)C2O)O1 (stereo not shown) | Pseudomonas aeruginosa | – | clinical isolate RKI-No_84/15 | – | – | MIC | 4 µg/mL |
| Cn1cc(-c2ccc(-c3cncc(Cl)c3N3CCC4(CCNC4=O)CC3)cc2)cn1 | COLO 205 | microarray, item: FABP5 | – | concentration not given, 2 h, gene set E-FABP | reference: untreated cells | fold change in expression | -2.03 |
| COc1c(O)cc2c(c1O)C(=O)c1c(cc(C)c(O)c1OC)C2=O | HK-2 co-cultured with HepaRG | MTT | – | 16.67 µM, 48 h | reference: untreated control | viability | 88.8 ± 4.99% |
| C[C@H](NC(=O)CO/N=c1\cc2n(-c3ccc(Cl)cc3)c3ccccc3nc-2cc1Nc1ccc(Cl)cc1)C(=O)O | Mycobacteroides abscessus | bacterial growth | clinical isolate | – | – | MIC | > 30 µM |
| C=CC(=O)ON=C1C=CC(=C(C#N)c2ccccc2)C=C1 | Candida parapsilosis | broth dilution | ATCC 22099 | 48 h, 37 °C | – | MIC | 16 µg/mL |
